Assay results of several laboratories.
Every numbered part comes from another study and shows a few of its results, in no order. Changes are numbered by the printed parent chain.

Series 1
Target: RNA binding protein fox-1 homolog 2, RRM domain, GST-SBP tag (RBFOX2, Homo sapiens, UniProt O43251-10, residues 100-194)
Method: RNA Bind-n-Seq
Form: RNA
Medium: in vitro
Concentration: 365 nM
Notes: natural RNA segment, single round, ends assumed
Relative to: no-protein control
Reading: higher = stronger binding
Constant ends, left off below: GGGAGUUCUACAGUCCGACGAUC … UGGAAUUCUCGGGUGCCAA
Residues (chain): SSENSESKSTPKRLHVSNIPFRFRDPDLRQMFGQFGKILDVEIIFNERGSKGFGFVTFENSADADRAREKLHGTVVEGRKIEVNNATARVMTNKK
| Sequence | RBNS enrichment (R) |
| --- | --- |
| UGUGUCCUCUCUGACUUGGCCAGCCUGAUGGUCCUUCCUUCUACUCUGUGUAGUCAUUCCUAAGCCCCACAGAGGGAGCGCCAACAUUUCUCACUGUGCUGCUGAGGUUC | 0.197 |
| AGUCAUGUGGAAAUGGUGUACCCGGCUGAGAUUUUUACAGCAAUAAAGGGGACUCUCACUAGGCUAGAGGCCGCCUUCUGCUCCUCUCUUGCACUGACUCUGUGGAGGGG | 0.464 |
| UGCUAUAAAAUGGACGCUAAACUAUGAAAACAGUGUGACAUUGUUCUCUGUUCUUCCAGAGCCAGUAACAUGCUUGCUCGUGCUUUCUACUUCUAGCUGAUCAUUCUUUU | 0.284 |
| ACCCCUCUUUCUAGGCUGAACCUUGAGUCCCCCUGCUUUUUGGCAGACCUAAUGGAUCACUGUCUUGCAGCUAGUUCUUCAUGUGGGGCCUCUUAGGCCAGUGCCGGAGG | 0.338 |
| CAUCACUUAGUUAUUGGGAAUUUCUUUGUUGGAAACAGGAAAAUUUUUUUAGAUUAUUUGGUGUACGGUUUUGCUCACAACAAUAGGUGGAAGUUGCUAGUGCAGUCUUG | 0.749 |
| CUCAUAGGGCUGAACCAGUGGGGCUGACGGGCCAGGUCAGCCUUGGACCCUUGAUCCUGGAGGACCCUGGAAGGGGUGGUUCCCUGUAAGCUCCCAAGAUCUAUGUUCCU | 0.453 |
| GUAUUACACAAGGGCAUCGAGUUCCAGGUGCCCCCCUUUUAGGACAGAGUUGUUUCCCAAUUCUGGAGGGAAGCUGAAUGGACACGGCUUCGUCAGUUUGCAUUUCUUUA | 0.979 |
| CGGGCUGUCUGCUCUCCCUCCUAGCAGCUGUCACACUGAAGUUUUGUCCUCUGCUGUCUCCUCUGGUCCUGAGAUGAGCUGUGAGCCUAGGUGGCCAAGGCUUCCUGCAU | 0.306 |
| UUGCAUUUAUAAAUUAUAAAUAUUGUACAUGUGUGUAAUUUUUCAUGUAUUCAUUUGCAGUCUUUGUAUUUAAAAAAACUUUACUGUUAUGUUUGUAUAAUAGAACAUUA | 0.584 |
| UUUUCAAUAAUUAGGUCUAAGUGGAGUUUUAAGGUUACUGAUGACUUACAAAUAAUGGGCUCUGAUUGGGCAAUACUCAUUUGAGUUCCUUCCAUUUGACCUAAUUUAAC | 0.326 |
| UCUGUAAAAGGCUGCAUAAAUGUUAGUUGGCACAUAAAGACAAUUGUAGAAGUUGAAAAAUGAUUGCUAUAUUUCAAUGUUUAUUCCCACUCAACAUACUGCCUUCUAAG | 0.724 |
| GAGACGGGGGUCUCACUUAGCUGUGAGUGGCCUUGAACUGACCCUUCCACCUUCAUUUCCCAAGUGCUGGGGUUAUAGGUUUGCACCAUGACACCCGACUUCGCCCUCAG | 0.72 |

Series 2
Target: CCNA1, cyclin fold, Cln2 fusion (human)
Method: yeast growth competition, sequencing
Medium: yeast
Notes: weak parent motif
Relative to: not given
Reading: higher = stronger binding
Parent: E2F7 docking peptide (human); SSAQRRLEIPSGG; partner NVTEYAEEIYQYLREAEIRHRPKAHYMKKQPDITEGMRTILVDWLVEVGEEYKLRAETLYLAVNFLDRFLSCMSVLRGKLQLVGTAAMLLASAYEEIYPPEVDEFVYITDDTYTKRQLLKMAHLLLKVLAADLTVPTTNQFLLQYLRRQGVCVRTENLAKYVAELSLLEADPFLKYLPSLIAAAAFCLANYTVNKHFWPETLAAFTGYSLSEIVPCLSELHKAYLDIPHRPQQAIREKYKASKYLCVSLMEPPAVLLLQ
| Variant | normalised enrichment score |
| --- | --- |
| G13A | 0.478 |
| I9L | 0.43 |
| R5K | -0.13 |
| R5K I9L | 0.0925 |
| R6A | 0.043 |
| Q4A | 0.249 |
| S1A | 0.345 |
| S2A | 0.124 |
| G12A | -0.109 |
| R5A L7A | 0.127 |

Series 3
Target: ABI1, truncated, D143A, DHFR fusion (Arabidopsis thaliana)
Method: DHFR PCA, deep sequencing
Medium: yeast
Notes: methotrexate growth selection, single substitutions
With: (+)-ABA 0.11 µM
Relative to: wild-type fitted maximum
Reading: higher = stronger binding
Parent: PYL1, truncated, DHFR fusion (Arabidopsis thaliana); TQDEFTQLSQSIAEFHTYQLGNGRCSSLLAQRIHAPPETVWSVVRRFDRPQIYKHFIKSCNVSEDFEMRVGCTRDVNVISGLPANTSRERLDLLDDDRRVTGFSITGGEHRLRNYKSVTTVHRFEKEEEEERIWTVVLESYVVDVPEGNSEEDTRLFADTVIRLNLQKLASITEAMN
| Variant | relative binding score [%] |
| --- | --- |
| D92R | 18.4 |
| E125L | 19.4 |
| E129Y | 16.4 |
| W41M | -5.69 |
| W41R | 4.74 |
| T119L | 5.65 |
| Q7T | 29.6 |
| N77T | 68 |
| L8W | 12.1 |
| Y115H | 11.3 |
| M176P | 14.7 |
| R155A | -5.6 |
| N149W | 11.2 |
| H16S | 0.289 |
| Q167K | 34.8 |
| K54H | 1.26 |
| S63Q | 22.6 |
| D48S | 1.07 |
| N22V | 38.2 |
| S87V | 59.6 |
| V70A | 11 |
| I105C | -3.42 |
| K58F | -2.95 |
| S140N | -6.37 |
| E128T | 34.2 |

Series 4
Target: TAR DNA-binding protein 43, full length, His tag (TARDBP, Homo sapiens, UniProt Q13148, residues 1-414)
Method: RNA Bind-n-Seq
Form: RNA
Medium: in vitro
Concentration: 20 nM
Notes: 6-mer, flanks averaged, single round
With: 150 mM KCl
Relative to: input library
Reading: higher = stronger binding
| Sequence | 6-mer enrichment (R) |
| --- | --- |
| GAAAAG | 1.08 |
| CUCCAA | 0.61 |
| AGCAAC | 0.676 |
| UAAAGG | 1.02 |
| UUUUUU | 0.948 |
| AGUUUG | 0.836 |
| UCCUAA | 0.575 |
| GUGUCU | 0.832 |
| GAAGCA | 0.894 |
| UAUAGC | 0.628 |
| UCGAUA | 0.577 |
| CACCUA | 0.635 |
| CGUACA | 0.637 |
| CGCAAU | 0.655 |
| AACUAA | 0.663 |
| CGCGGC | 1.47 |
| AGUCAA | 0.625 |
| UCAUGU | 0.641 |
| CGAGCG | 1.52 |
| GAGGUG | 3.47 |
| CCGAUC | 0.615 |
| UUGAGG | 1.52 |
| AUAUAA | 0.713 |
| UCGUUG | 0.686 |
| CAAUGU | 0.671 |

Excerpt of the above (series 4):
| Sequence | 6-mer enrichment (R) |
| --- | --- |
| UUGAGG | 1.52 |
| UCGUUG | 0.686 |
| AACUAA | 0.663 |
| UAAAGG | 1.02 |
| UCGAUA | 0.577 |
| CACCUA | 0.635 |
| CAAUGU | 0.671 |
